Published values collected from several papers.
Each numbered part is a random draw from the data of one study; scales do not carry over between parts. Substitutions count along the parent as printed.
Sequence of UniProt Q9FX25 (whole entry, looked up): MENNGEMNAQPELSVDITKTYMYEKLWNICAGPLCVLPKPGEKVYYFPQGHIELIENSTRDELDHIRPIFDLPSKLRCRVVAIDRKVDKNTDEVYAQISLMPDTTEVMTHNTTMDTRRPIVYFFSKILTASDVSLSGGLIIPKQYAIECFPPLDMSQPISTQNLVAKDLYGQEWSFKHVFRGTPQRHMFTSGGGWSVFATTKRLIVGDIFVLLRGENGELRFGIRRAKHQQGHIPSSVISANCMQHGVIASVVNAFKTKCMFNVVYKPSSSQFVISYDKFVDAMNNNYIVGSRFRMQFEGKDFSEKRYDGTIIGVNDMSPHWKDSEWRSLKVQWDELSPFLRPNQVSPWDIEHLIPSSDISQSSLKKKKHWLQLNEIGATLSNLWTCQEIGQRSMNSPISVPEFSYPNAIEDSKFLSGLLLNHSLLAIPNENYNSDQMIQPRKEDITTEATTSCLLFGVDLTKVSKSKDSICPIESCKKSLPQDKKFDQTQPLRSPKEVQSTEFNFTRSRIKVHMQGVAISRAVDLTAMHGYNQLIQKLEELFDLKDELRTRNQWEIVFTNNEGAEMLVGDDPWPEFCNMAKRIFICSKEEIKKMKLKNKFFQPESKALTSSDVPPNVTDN
Sequence of UniProt Q84WU6 (whole entry, looked up): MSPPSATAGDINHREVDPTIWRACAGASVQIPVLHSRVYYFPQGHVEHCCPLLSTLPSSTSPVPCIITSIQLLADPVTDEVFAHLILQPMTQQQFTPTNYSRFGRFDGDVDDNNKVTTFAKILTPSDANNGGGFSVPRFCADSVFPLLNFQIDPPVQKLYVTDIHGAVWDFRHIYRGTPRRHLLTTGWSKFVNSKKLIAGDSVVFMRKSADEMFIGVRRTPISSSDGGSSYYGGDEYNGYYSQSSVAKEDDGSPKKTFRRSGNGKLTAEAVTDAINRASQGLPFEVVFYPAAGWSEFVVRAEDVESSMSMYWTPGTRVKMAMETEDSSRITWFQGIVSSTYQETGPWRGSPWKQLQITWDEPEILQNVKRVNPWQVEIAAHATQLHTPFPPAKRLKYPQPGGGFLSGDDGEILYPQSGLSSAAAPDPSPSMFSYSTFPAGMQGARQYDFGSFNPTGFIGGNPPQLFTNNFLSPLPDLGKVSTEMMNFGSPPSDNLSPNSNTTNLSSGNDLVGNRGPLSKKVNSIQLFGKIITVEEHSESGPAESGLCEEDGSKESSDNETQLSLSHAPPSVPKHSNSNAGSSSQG
Sequence of UniProt Q38831 (whole entry, looked up): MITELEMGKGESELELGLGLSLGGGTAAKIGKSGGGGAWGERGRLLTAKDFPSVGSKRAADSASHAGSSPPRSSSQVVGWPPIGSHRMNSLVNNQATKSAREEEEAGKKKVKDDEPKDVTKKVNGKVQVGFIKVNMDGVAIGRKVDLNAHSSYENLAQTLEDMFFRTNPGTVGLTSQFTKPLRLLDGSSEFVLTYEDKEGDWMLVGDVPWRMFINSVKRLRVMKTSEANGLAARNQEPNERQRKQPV

Series 1 — target: UBE2S UBC core domain (UniProt Q16763); method: yeast two-hybrid; matrix: yeast; setting: mostly zero background; baseline: not given; direction: higher = stronger interaction
B1: TRIM40 RING domain (UniProt Q6P9F5); chain LQKDNQEEGVCPICQESLKEAVSTNCGHLFCRVCLTQHVEKASASGVFCCPLCRKPCSEEVLG
B2: RNF208 RING domain (UniProt Q9H0X6); chain SSAAAGEPLECPTCGHSYNVTQRRPRVLSCLHSVCEQCLQILYESCPKYKFISCPTCRRETVLFTDYG
B3: TRIM24 RING domain (UniProt O15164); chain EAARLNLLDTCAVCHQNIQSRAPKLLPCLHSFCQRCLPAPQRYLMLPAPMLGSAETPPPVPAPGSPVSGSSPFATQVGVIRCPVCSQECAERHII
B4: RNF38 RING domain (UniProt Q9H0F5); chain PNNHQSEQTLCVVCMCDFESRQLLRVLPCNHEFHAKCVDKWLKANRTCPICRADASEVHRDS
B5: TRIM5 RING domain (UniProt Q9C035); chain LREVKLSPEGQKVDHCARHGEKLLLFCQEDGKVICWLCERSQEHRGHHTFLTEEVAREYQVKL
B6: DTX4 RING domain (UniProt Q9Y2E6); chain QKVRHPPDEDCTICMERLTAPSGYKGPQPTVKPDLVGKLSRCGHVYHIYCLVAMYNNGNKDGSLQCPTCKTIYGVKTGTQ
B7: NEURL1 RING domain (UniProt O76050); chain VTPGLGQWSDECTICYEHAVDTVIYTCGHMCLCYACGLRLKKALHACCPICRRPIKDIIKT
B8: TRIM13 RING domain (UniProt O60858); chain MELLEEDLTCPICCSLFDDPRVLPCSHNFCKKCLEGILEGSVRNSLWRPAPFKCPTCRKETSATGINS
B9: TRIM4 RING domain (UniProt Q9C037); chain EAEDIQEELTCPICLDYFQDPVSIECGHNFCRGCLHRNWAPGGGPFPCPECRHPSAPAALRP
Residues (chain): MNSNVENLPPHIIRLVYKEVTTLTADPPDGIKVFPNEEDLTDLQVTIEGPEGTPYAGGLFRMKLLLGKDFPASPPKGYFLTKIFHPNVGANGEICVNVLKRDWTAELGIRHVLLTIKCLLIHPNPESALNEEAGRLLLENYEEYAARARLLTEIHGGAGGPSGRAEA
Molecule | lacZ reporter activity
B1 (TRIM40 RING domain) | 0
ASLPTSEEDLCPICYAHPISAVFQPCGHKSCKACINQHLMNNKDCFFCKTTIVSVEDWE (RNF123 RING domain (UniProt Q5XPI4)) | 0
B2 (RNF208 RING domain) | 0
B3 (TRIM24 RING domain) | 0
B4 (RNF38 RING domain) | 0
B5 (TRIM5 RING domain) | 0
B6 (DTX4 RING domain) | 0
FQGDVDEDLICPICSGVLEEPVQAPHCEHAFCNACITQWFSQQQTCPVDRSVVTVAHLRP (RNF41 RING domain (UniProt Q9H4P4)) | 0
MPIRALCTICSDFFDHSRDVAAIHCGHTFHLQCLIQWFETAPSRTCPQCRIQVGKRTIIN (TRAIP RING domain (UniProt Q9BWF2)) | 0
B7 (NEURL1 RING domain) | 0
B8 (TRIM13 RING domain) | 0
B9 (TRIM4 RING domain) | 0
VEPSEENSKDCVVCQNGTVNWVLLPCRHTCLCDGCVKYFQQCPMCRQFVQESFALC (CGRRF1 RING domain (UniProt Q99675)) | 0

Series 2 — method: protein binding microarray; molecule type: double-stranded DNA, one strand shown; matrix: in vitro; tested at: not given; baseline: not given; direction: higher = stronger binding
Target: Histone acetyltransferase KAT6A, winged helix 1, GST fusion (KAT6A, Homo sapiens, UniProt Q92794, residues 1-85)
Setting: 8-mer, flanks averaged, mean of 2 arrays, mostly near background
Construct (chain): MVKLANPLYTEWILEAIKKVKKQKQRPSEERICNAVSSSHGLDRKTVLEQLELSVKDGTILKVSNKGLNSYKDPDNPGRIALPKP
Sequence | E-score
TACCATGA | -0.146
CGAGGCTA | -0.139
ACACTCCT | -0.0805
CACGCTCC | 0.034
TTCCAAAA | -0.268
GGCATTGA | 0.138
ACTGGGCA | -0.272
ACTCCTTG | -0.0699
CATCAGCA | -0.165
CCAAGACG | 0.0135
CGAGACGC | 0.153
GGGCCACC | 0.0227
CTTCGTGA | 0.035
CTCTTCCC | 0.068
CCATCTCG | -0.17
CTCTCTTA | -0.128
TCAAACCA | -0.0536

Series 3 — method: DHFR PCA, dose-response; matrix: yeast; setting: Hill fit, mean, not affinity; added: (+)-ABA, dose series; direction: lower = more sensitive
Target: ABI1, truncated, D143A, DHFR fusion (Arabidopsis thaliana, UniProt P49597)
Parent: PYL1, truncated, DHFR fusion (Arabidopsis thaliana, UniProt Q8VZS8); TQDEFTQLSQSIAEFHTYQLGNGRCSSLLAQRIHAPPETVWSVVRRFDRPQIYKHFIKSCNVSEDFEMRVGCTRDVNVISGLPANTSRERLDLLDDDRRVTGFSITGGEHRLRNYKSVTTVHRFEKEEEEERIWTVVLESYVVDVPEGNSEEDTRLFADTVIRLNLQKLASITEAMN
Variant | ABA EC50 [µM]
L93E | 12.7
E130I | 2.96
S59L | 45.5
T1V | 0.822
S59H | 5.14
T73M | 1.6
S87T | 104
V118N | 15.7
E4Y | 6.41
A30C | 1.87
V145S | 71.5
Q31R | 6.3
Q51T | 27.7
T86S | 0.701
F56S | 837
M176I | 3.29

Series 4 — Molecule: B10 (IAA8); method: two-hybrid; direction: higher = firmer interaction
B10: IAA8 (Arabidopsis thaliana, UniProt Q38826); chain MSYRLLSVDKDELVTSPCLKERNYLGLSDCSSVDSSTIPNVVGKSNLNFKATELRLGLPESQSPERETDFGLLSPRTPDEKLLFPLLPSKDNGSATTGHKNVVSGNKRGFADTWDEFSGVKGSVRPGGGINMMLSPKVKDVSKSIQEERSHAKGGLNNAPAAKAQVVGWPPIRSYRKNTMASSTSKNTDEVDGKPGLGVLFVKVSMDGAPYLRKVDLRTYTSYQQLSSALEKMFSCFTLGQCGLHGAQGRERMSEIKLKDLLHGSEFVLTYEDKDGDWMLVGDVPWEIFTETCQKLKIMKGSDSIGLAPGAVEKSKNKERV
partner | setting | baseline | positive tests
ARF17 (Arabidopsis thaliana, UniProt Q84WU6) | weak activation fusion | out of 4 tests | 0
IAA13 (Arabidopsis thaliana, UniProt Q38831) |  | out of 2 tests | 0
ARF13 (Arabidopsis thaliana, UniProt Q9FX25) |  | out of 4 tests | 0

Series 5 — target: CCNE2, cyclin fold, Cln2 fusion (human); method: yeast growth competition, sequencing; matrix: yeast; setting: strong parent motif; baseline: not given; direction: higher = stronger binding
Parent: E2F1 docking peptide (human); PPVKRRLDFETDH; partner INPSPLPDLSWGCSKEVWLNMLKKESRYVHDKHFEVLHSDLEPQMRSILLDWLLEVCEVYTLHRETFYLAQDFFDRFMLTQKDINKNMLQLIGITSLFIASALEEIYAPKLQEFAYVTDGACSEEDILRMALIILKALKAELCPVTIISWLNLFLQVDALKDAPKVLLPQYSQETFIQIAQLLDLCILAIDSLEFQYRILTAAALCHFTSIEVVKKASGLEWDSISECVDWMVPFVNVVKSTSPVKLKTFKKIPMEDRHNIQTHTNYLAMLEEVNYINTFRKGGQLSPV
Variant | normalised enrichment score
PPVLRRLDFETDH [K4L] | 1.2
PPVKRRLDIETDH [F9I] | 0.319
PPVKRRLDEETDH [F9E] | 0.859
PPVKRRLDTETDH [F9T] | 0.808
PPVKRRLDFYTDH [E10Y] | 5.67
PPVKRRLDFETEH [D12E] | 5.78
PPCKRRLDFETDH [V3C] | 5.2
PPVKRRLDFEGDH [T11G] | 5.64
PPVKRRLDFEIDH [T11I] | 5.88
PPVKNRLDFETDH [R5N] | 0.249
PPVKRRLDFEYDH [T11Y] | 5.74
PPVTRRLDFETDH [K4T] | 2.56
PPVKRRLDFQTDH [E10Q] | 5.87
PPVKRRLDFCTDH [E10C] | 6.11
PRVKRRLDFETDH [P2R] | 5.8
PPVPRRLDFETDH [K4P] | 1.26
PPTKRRLDFETDH [V3T] | 4.27
PPVKRRLDFETPH [D12P] | 6.35
PPVKRALDFETDH [R6A] | 2.39
PPVKRRLDSETDH [F9S] | 0.349
PPVKERLDFETDH [R5E] | -0.363
PPVKRRLDFETHH [D12H] | 6.4
PPVKRPLDFETDH [R6P] | -0.136
PPVKRRLDFATDH [E10A] | 6.05
PPVKRRLDFETMH [D12M] | 6.58

For quick reference, copied from above (series 1):
Molecule | lacZ reporter activity
B8 (TRIM13 RING domain) | 0
B3 (TRIM24 RING domain) | 0
VEPSEENSKDCVVCQNGTVNWVLLPCRHTCLCDGCVKYFQQCPMCRQFVQESFALC (CGRRF1 RING domain (UniProt Q99675)) | 0
MPIRALCTICSDFFDHSRDVAAIHCGHTFHLQCLIQWFETAPSRTCPQCRIQVGKRTIIN (TRAIP RING domain (UniProt Q9BWF2)) | 0
B7 (NEURL1 RING domain) | 0
FQGDVDEDLICPICSGVLEEPVQAPHCEHAFCNACITQWFSQQQTCPVDRSVVTVAHLRP (RNF41 RING domain (UniProt Q9H4P4)) | 0
ASLPTSEEDLCPICYAHPISAVFQPCGHKSCKACINQHLMNNKDCFFCKTTIVSVEDWE (RNF123 RING domain (UniProt Q5XPI4)) | 0
